Published values pooled from the literature.
Parts stem from different laboratories: compare values within a part only. Several values in a cell are separate wells, animals, samples, runs or records.
Sequence of UniProt P43403 (whole entry, looked up): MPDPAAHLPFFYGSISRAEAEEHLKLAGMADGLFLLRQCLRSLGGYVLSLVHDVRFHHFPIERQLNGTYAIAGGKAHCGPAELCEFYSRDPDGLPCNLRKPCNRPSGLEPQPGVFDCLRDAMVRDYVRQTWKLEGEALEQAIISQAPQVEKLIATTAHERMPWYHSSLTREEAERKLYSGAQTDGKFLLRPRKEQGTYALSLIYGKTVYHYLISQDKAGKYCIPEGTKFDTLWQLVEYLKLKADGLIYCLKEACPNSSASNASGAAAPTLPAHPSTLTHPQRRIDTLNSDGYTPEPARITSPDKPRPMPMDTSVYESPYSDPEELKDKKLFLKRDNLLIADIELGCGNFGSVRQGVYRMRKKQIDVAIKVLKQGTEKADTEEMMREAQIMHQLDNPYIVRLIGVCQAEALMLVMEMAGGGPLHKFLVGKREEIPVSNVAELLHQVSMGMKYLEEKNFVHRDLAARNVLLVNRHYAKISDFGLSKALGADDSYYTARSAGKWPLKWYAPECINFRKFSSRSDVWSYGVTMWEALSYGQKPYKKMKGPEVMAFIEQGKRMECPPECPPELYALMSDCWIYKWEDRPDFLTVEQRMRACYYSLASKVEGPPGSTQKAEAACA
Sequence of UniProt Q02156 (whole entry, looked up): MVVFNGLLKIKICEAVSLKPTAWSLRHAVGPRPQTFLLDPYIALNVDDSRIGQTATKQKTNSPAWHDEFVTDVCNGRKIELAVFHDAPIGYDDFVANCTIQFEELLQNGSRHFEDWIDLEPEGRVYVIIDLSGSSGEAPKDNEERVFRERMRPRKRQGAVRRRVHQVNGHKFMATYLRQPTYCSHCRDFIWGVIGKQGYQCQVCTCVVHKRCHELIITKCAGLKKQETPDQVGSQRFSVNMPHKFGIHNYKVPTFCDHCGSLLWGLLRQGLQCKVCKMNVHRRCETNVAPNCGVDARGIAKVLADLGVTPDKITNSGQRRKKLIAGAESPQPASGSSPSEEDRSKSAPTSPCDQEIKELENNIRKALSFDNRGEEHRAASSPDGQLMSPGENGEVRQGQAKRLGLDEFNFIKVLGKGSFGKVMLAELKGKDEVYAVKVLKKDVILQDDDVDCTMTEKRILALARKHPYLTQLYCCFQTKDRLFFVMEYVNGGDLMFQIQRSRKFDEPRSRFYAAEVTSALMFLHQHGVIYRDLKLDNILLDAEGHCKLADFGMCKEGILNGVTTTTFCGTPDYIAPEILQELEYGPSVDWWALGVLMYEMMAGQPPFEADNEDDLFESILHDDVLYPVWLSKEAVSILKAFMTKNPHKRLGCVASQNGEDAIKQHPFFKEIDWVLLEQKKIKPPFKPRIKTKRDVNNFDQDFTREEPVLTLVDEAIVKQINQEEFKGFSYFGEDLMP
Sequence of UniProt Q16659 (whole entry, looked up): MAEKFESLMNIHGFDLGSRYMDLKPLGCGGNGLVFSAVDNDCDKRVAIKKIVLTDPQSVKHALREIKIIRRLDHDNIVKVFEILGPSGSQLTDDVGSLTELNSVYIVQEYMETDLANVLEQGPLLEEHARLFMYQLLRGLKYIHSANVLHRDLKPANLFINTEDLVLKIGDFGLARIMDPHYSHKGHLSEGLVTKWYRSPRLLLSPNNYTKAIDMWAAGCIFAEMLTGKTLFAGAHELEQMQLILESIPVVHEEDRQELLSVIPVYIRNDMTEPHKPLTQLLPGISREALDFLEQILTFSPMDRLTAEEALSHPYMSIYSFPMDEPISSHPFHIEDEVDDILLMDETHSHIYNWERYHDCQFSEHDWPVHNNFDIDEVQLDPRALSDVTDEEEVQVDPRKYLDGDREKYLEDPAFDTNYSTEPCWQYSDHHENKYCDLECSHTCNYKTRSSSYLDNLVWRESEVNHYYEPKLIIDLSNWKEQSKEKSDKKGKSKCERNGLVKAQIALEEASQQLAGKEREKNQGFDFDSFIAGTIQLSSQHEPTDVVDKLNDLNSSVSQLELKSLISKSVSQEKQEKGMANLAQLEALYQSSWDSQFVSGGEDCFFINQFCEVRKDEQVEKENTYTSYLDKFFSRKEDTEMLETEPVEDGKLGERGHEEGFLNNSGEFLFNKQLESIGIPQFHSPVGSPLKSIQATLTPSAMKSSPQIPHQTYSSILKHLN
Sequence of UniProt Q99558 (whole entry, looked up): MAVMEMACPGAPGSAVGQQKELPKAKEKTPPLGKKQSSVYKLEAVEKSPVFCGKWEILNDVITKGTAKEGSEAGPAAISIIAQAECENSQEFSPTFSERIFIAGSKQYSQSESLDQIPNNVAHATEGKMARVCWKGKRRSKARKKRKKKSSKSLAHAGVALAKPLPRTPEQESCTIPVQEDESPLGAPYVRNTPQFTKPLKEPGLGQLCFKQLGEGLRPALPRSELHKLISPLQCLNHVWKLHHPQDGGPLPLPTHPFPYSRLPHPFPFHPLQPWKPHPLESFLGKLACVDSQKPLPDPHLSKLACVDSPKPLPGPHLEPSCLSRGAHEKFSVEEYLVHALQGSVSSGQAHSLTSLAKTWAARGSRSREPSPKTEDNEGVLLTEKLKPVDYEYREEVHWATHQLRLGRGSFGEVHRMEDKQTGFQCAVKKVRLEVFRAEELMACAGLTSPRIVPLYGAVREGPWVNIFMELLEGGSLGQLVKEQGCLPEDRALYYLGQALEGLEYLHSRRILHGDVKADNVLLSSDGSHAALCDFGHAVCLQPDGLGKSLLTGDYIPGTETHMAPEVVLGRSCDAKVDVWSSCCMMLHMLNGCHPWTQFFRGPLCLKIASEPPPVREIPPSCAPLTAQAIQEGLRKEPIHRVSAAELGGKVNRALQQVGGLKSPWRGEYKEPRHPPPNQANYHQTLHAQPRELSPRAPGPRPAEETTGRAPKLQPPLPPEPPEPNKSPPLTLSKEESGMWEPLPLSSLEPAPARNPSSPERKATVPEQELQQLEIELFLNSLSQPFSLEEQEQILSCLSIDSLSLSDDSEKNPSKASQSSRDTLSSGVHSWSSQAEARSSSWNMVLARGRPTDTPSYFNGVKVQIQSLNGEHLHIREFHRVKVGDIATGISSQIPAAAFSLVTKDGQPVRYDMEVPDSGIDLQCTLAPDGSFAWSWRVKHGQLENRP
Sequence of UniProt P00519 (whole entry, unmodified, looked up): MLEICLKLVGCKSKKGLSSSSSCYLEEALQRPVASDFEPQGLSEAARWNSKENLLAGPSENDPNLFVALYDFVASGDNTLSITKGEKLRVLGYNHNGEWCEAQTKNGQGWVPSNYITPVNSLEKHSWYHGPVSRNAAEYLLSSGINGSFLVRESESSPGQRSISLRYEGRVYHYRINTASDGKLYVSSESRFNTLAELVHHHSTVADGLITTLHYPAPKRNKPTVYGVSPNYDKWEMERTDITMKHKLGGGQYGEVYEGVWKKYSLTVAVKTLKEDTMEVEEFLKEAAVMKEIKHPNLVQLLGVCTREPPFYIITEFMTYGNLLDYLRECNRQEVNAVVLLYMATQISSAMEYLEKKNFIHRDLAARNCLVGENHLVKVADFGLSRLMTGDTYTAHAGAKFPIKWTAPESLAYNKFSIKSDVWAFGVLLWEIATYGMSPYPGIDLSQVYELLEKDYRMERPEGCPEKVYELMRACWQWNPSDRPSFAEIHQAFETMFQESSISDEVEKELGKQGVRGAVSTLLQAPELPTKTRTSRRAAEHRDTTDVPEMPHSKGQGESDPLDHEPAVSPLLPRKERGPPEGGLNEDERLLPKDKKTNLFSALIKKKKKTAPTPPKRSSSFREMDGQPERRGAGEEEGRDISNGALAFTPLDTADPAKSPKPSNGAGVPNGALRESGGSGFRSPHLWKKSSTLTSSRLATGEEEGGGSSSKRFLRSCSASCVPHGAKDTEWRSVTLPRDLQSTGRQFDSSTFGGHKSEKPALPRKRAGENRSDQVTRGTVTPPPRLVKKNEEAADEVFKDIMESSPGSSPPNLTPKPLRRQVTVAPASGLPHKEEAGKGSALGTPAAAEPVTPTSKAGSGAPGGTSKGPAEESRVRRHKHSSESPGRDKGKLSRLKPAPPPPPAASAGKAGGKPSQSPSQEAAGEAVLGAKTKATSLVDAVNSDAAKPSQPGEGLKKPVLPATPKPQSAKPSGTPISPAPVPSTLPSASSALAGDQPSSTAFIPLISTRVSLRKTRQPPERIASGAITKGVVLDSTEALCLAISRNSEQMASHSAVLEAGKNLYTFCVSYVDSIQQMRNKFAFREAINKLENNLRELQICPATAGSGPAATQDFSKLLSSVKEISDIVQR

Block 1 — effect on: enzyme activity; action: inhibitor; tested at: 1 µM; measurement: inhibition
SMILES: CO[C@@H]1[C@H](N(C)C(=O)c2ccccc2)C[C@H]2O[C@]1(C)n1c3ccccc3c3c4c(c5c6ccccc6n2c5c31)C(=O)NC4
MAPK13 (Homo sapiens, UniProt O15264): 0%
MAPK6 (Homo sapiens, UniProt Q16659): 0%
MAPK14 (Homo sapiens, UniProt Q16539): 0%
PRKD3 (Homo sapiens, UniProt O94806): 18%
SRPK1 (Homo sapiens, UniProt Q96SB4): 11%
EPHA2 (Homo sapiens, UniProt P29317): 0%
STK32B (Homo sapiens, UniProt Q9NY57): 0%
HIPK2 (Homo sapiens, UniProt Q9H2X6): 5%

Block 2 — effect on: enzyme activity; action: inhibitor; tested at: 0.5 µM; baseline: control; measurement: remaining activity
Target: Serine/threonine-protein kinase MARK1 (MARK1, Homo sapiens, UniProt Q9P0L2)
Sequence of UniProt Q9P0L2 (whole entry, looked up): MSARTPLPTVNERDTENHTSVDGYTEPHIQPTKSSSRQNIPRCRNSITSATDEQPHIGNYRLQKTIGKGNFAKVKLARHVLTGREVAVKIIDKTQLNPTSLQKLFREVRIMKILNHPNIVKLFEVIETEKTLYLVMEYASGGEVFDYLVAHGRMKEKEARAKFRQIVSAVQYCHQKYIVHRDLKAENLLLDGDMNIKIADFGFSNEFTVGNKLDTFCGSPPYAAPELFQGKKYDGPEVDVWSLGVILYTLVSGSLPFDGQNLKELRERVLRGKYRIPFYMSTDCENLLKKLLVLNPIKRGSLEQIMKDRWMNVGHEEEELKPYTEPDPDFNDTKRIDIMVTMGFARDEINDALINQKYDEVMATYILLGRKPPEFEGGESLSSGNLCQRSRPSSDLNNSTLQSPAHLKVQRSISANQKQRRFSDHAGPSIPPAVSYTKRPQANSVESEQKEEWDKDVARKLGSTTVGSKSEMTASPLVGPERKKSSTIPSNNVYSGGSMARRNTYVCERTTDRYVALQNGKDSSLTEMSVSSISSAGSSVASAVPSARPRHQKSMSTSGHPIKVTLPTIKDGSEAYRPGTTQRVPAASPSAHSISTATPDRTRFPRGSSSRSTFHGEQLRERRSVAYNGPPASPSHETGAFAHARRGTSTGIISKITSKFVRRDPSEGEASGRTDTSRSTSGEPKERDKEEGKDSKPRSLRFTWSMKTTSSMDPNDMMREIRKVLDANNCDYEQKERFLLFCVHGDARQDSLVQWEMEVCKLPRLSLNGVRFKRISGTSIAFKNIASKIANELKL
CNC(=O)c1cc(Oc2ccc(NC(=O)Nc3ccc(Cl)c(C(F)(F)F)c3)cc2)ccn1: 80.3%
Nc1ccc2ncnc(NCCc3ccc(Oc4ccccc4)cc3)c2c1: 103%
Cc1nc(-c2ccccc2)c(-c2ccncc2)o1: 92.5%
O=c1c2ccccc2[nH]c(=S)n1CCN1CCC(=C(c2ccc(F)cc2)c2ccc(F)cc2)CC1: 99.7%
Cn1sc(=O)n(Cc2ccccc2)c1=O: 107%
O=C(Nc1cccc(Nc2cc(Nc3cccc(C(F)(F)F)c3)ncn2)c1)C1CC1: 102%
CCOC(=O)c1c(C)[nH]c(/C=C2\C(=O)Nc3ccccc32)c1C: 90.8%
OCC(O)CCON=C1C(c2c(O)[nH]c3ccccc23)=Nc2ccccc21 (stereo not shown): 60.5%
COc1cc2nccc(Oc3ccc(NC(=S)NC(=O)c4ccccc4C)cc3)c2cc1OC: 91.4%
CO[C@H]1C[C@@H]2CC[C@@H](C)[C@@](O)(O2)C(=O)C(=O)N2CCCC[C@H]2C(=O)O[C@H]([C@H](C)C[C@@H]2CC[C@@H](O)[C@H](OC)C2)CC(=O)[C@H](C)/C=C(\C)[C@@H](O)[C@@H](OC)C(=O)[C@H](C)C[C@H](C)/C=C/C=C/C=C/1C: 98.8%
COc1cc2ncnc(Nc3ccc(Oc4ccccc4)cc3)c2cc1OC: 93.3%
CC(C)[C@H](CO)Nc1nc(Nc2cc(N)cc(Cl)c2)c2ncn(C(C)C)c2n1: 87.5%
Cc1ccc(NC(=O)c2ccc(CN3CCN(C)CC3)cc2)cc1Nc1nc(-c2cccnc2)cs1: 86.9%
Oc1ccc(-c2nc(-c3ccncc3)c(-c3ccc(F)cc3)[nH]2)cc1: 101%
Nc1ncnc2n[nH]c(Nc3ccc(F)cc3)c12: 93.8%

Block 3 — tested at: 0.1 µM; baseline: DMSO; measurement: viability
Structure (SMILES): CNC(=O)Nc1ccc2c(c1)C1(CC2)OC(=O)N(CC(=O)N(Cc2ccc(F)cc2)[C@@H](C)C(F)(F)F)C1=O (single isomer, unassigned)
colorectal tumour organoids: 107%
normal-adjacent epithelium patient-derived organoids sample F; CellTiter-Glo: 96.9% and 102%
sample I colorectal tumour organoid; replicate 2: 93.7%
normal-adjacent epithelium patient-derived organoids sample H; CellTiter-Glo: 91.9% and 103%
sample I colorectal tumour organoid: 108%
sample C colorectal tumour organoid; replicate 1: 93.4%
sample B colorectal tumour organoid; replicate 1: 115%
sample B colorectal tumour organoid; replicate 2: 128%
sample C colorectal tumour organoid; replicate 2: 101%

Block 4 — SMILES: O=C(Nc1ccccc1)Nc1cccc(Oc2ccc3nccn3n2)c1; tested at: 1 µM; measurement: remaining binding
ABL1 (Homo sapiens, UniProt P00519, T315I); competitive binding, scanMAX: 100%
MAP3K14 (Homo sapiens, UniProt Q99558); competitive binding; NIK: 93%
PIK3CA (Homo sapiens, UniProt P42336, C420R); competitive binding panel; baseline: vehicle: 100%
LRRK2 (Homo sapiens, UniProt Q5S007, G2019S); competitive binding panel; baseline: vehicle: 39%
ERBB4 (Homo sapiens, UniProt Q15303); competitive binding panel; baseline: vehicle: 100%
ZAP70 (Homo sapiens, UniProt P43403); competitive binding panel; baseline: vehicle: 100%
PRKCE (Homo sapiens, UniProt Q02156); competitive binding panel; baseline: vehicle: 100%
DCLK2 (Homo sapiens, UniProt Q8N568); competitive binding panel, item: DCAMKL2; baseline: vehicle: 100%

For quick reference, copied from above (block 4):
MAP3K14 (Homo sapiens, UniProt Q99558); competitive binding; NIK: 93%
PIK3CA (Homo sapiens, UniProt P42336, C420R); competitive binding panel; baseline: vehicle: 100%
LRRK2 (Homo sapiens, UniProt Q5S007, G2019S); competitive binding panel; baseline: vehicle: 39%
